Measured values of several laboratories.
Numbered parts are unrelated; each lists some results of a single study. Substitutions count along the parent as printed.

Set 1
Target: OGT, full length, His-tagged (human)
Method: phage display, sequencing
Matrix: in vitro
Tested at: 1 µg OGT
Setting: single substitutions, 15-mer displayed peptide, unchanged parent 19.6
Reference: input library
Reading: higher = stronger binding
Starting sequence: peptide; TAPFYPPAYQIQVFK; partner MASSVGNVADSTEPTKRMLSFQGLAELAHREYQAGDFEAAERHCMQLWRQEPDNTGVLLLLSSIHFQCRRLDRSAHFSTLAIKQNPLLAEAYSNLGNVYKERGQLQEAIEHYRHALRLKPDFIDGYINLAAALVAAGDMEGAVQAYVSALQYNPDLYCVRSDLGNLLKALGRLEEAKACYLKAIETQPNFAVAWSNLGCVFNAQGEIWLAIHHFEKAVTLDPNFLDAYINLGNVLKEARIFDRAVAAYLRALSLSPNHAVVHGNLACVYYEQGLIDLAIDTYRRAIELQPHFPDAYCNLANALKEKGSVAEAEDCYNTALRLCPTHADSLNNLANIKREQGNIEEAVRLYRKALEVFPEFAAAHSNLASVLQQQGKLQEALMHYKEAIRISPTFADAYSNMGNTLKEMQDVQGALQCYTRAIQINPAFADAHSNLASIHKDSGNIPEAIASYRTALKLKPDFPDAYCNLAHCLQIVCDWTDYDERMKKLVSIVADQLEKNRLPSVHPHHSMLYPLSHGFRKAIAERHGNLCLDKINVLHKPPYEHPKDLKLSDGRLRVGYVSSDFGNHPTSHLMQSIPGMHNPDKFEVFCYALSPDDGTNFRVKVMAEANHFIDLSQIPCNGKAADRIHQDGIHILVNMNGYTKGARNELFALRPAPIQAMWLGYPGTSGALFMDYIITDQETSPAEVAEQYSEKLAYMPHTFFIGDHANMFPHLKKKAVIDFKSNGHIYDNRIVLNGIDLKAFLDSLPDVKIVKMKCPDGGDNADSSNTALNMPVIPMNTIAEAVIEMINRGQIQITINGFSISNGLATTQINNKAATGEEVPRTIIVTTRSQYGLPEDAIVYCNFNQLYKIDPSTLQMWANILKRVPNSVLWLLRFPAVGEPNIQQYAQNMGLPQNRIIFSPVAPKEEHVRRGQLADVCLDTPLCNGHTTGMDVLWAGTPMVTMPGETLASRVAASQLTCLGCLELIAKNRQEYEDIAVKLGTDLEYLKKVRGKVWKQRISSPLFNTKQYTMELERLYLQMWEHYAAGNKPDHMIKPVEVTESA
| Substitution | fold enrichment [fold] |
| --- | --- |
| TWPFYPPAYQIQVFK [A2W] | 10.8 |
| TLPFYPPAYQIQVFK [A2L] | 22.8 |
| TAPFYPPAYFIQVFK [Q10F] | 3.26 |
| TAPFYPEAYQIQVFK [P7E] | 1.65 |
| TAPFYPPAYQIQVSK [F14S] | 18.4 |
| TAPFYPPAYQIHVFK [Q12H] | 18 |
| TAPFYPQAYQIQVFK [P7Q] | 1.1 |
| TAPFYPPAYQIQSFK [V13S] | 4.9 |

Set 2
Target: vanadate, free oxyanion
Method: microfluidic competitive inhibition
Matrix: in vitro, cell-free expressed
Tested at: not given
Setting: derived from inhibition constants, unchanged parent 676 nM
Reading: lower = stronger binding
Starting sequence: PafA, mature enzyme, eGFP fusion (Elizabethkingia meningoseptica, UniProt Q9KJX5); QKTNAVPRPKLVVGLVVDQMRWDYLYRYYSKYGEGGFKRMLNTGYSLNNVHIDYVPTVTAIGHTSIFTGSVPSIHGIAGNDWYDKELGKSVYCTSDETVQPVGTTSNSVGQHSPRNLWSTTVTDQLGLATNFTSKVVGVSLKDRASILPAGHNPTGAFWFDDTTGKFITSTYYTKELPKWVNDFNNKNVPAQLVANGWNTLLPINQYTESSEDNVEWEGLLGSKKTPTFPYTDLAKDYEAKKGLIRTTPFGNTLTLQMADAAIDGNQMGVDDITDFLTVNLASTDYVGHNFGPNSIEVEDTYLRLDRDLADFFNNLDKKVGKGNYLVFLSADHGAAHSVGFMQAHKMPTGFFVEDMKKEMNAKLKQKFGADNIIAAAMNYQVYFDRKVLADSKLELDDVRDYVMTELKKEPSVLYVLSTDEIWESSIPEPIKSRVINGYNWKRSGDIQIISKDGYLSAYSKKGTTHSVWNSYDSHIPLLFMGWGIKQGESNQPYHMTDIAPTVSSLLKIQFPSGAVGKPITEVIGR
| Substitution | oxyanion analog dissociation constant |
| --- | --- |
| G103V | 762 nM |
| A195G | 912 nM |
| E359G | 722 nM |
| Y172V | 5.37 µM |
| R526V | 613 nM |
| H51G | 692 nM |
| G269A | 640 nM |
| G340A | 784 nM |
| E86G | 516 nM |
| K363G | 673 nM |
| V17G | 737 nM |
| T43G | 668 nM |
| E406G | 785 nM |
| R526G | 686 nM |
| A5G | 760 nM |
| K408V | 647 nM |
| M342V | 787 nM |
| V109A | 796 nM |
| D53G | 517 nM |
| N361G | 748 nM |
| V6G | 509 nM |
| A500G | 571 nM |
| W217G | 882 nM |
| P101V | 2.44 µM |
| V71A | 557 nM |

Set 3
Target: Protein max, full length (MAX, Homo sapiens, UniProt P61244-2, residues 1-151)
Method: protein-binding microarray
Form: double-stranded DNA, one strand shown
Matrix: in vitro
Tested at: not given
Setting: k-mer, scored over probes, only values ≥0.25
Reading: higher = stronger binding
| Oligonucleotide | E-score |
| --- | --- |
| ACGTTCCA | 0.267 |
| ATACACGC | 0.404 |
| CGGGGAAC | 0.258 |
| ACGTGATC | 0.418 |
| CAGCATGA | 0.412 |
| GCGTTTCC | 0.255 |
| CACGTGAC | 0.495 |
| AGCCACGA | 0.308 |

Set 4
Target: CCND2, cyclin fold, Cln2 fusion (human)
Method: yeast growth competition, sequencing
Matrix: yeast
Setting: weak parent motif
Reference: not given
Reading: higher = stronger binding
Starting sequence: viral docking peptide; KGVKRKLFAEDSS; partner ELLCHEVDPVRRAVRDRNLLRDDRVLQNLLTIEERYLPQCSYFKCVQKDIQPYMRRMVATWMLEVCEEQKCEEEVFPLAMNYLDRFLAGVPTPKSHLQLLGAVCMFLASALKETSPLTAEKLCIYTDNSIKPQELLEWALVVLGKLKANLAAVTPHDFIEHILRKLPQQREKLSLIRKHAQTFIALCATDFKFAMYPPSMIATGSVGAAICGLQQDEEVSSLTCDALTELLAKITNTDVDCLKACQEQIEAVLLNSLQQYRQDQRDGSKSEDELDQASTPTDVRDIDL
| Substitution | normalised enrichment score |
| --- | --- |
| A9K | -0.0393 |
| E10D | 0.38 |
| A9V | 0.342 |
| S12I | 0.17 |
| A9I | 0.0364 |
| F8M | 0.0495 |
| A9W | -0.266 |
| L7C | 0.265 |
| V3Q | -0.11 |
| K4F | -0.212 |
| A9Y | 0.585 |
| E10V | -0.12 |
| K4A | 0.289 |
| G2E | 0.0922 |
| K6A | 0.0251 |
| F8T | -0.408 |
| K1A | 0.353 |
| V3R | -0.159 |
| D11M | -0.328 |
| K4Y | -0.523 |
| F8H | 0.253 |
| L7G | 0.321 |
| S12K | -0.0181 |
| S12E | -0.117 |
| V3W | -0.335 |

Repeated from above (set 1):
| Substitution | fold enrichment [fold] |
| --- | --- |
| TWPFYPPAYQIQVFK [A2W] | 10.8 |
| TLPFYPPAYQIQVFK [A2L] | 22.8 |
| TAPFYPPAYFIQVFK [Q10F] | 3.26 |
| TAPFYPEAYQIQVFK [P7E] | 1.65 |
